Assay results gathered from unrelated publications.
Protocols differ between the studies behind these lines. Several values in a cell are separate wells, animals, samples, runs or records. Numbers after ± are the reported error. ≈ marks a conversion by molar mass, not a printed value.

Structure (SMILES) = N=C(N)NCCC[C@H](NC(=O)CN)C(=O)N[C@@H](Cc1c[nH]c2ccccc12)C(=O)N[C@@H](CCCNC(=N)N)C(=O)N[C@@H](Cc1c[nH]c2ccccc12)C(=O)N[C@@H](Cc1c[nH]c2ccccc12)C(=O)N[C@@H](Cc1c[nH]c2ccccc12)C(=O)N[C@@H](CCCNC(=N)N)C(=O)N[C@@H](Cc1c[nH]c2ccccc12)C(=O)N[C@@H](CCCNC(=N)N)C(=O)N[C@@H](Cc1c[nH]c2ccccc12)C(N)=O; organism = Candida albicans; assay = broth microdilution; test system = SP3902, RPMI 1640-MOPS; setting = 48 h, 30 °C; quantity = MIC; value = 8 µM
Structure (SMILES) = Cc1ccc(-c2cnc([C@@]3(O)CC[C@H](C(=O)O)C(C)(C)C3)s2)cc1Nc1cccc(C(F)(F)F)n1; organism = murine hepatitis virus; assay = viral replication, nanoluciferase reporter; test system = DBT; setting = 1 µM, 10 h; scale = baseline: DMSO vehicle; quantity = inhibition; value = 25%
Structure (SMILES) = CC[C@H](C=C[C@@H](C)[C@H]1CC[C@H]2[C@@H]3CCC4=CC(=O)CC[C@]4(C)[C@H]3CC[C@]12C)C(C)C; organism = Leishmania mexicana; test system = mouse C57BL/6 bone marrow-derived macrophages, intracellular amastigotes; setting = concentration not given, 48 h; quantity = antileishmanial activity; value = inactive
Structure (SMILES) = COc1ccccc1-c1cc(Nc2cccc(CS(N)(=O)=O)c2)ncn1; organism = murine hepatitis virus; assay = viral replication, nanoluciferase reporter; test system = DBT; setting = 1 µM; scale = baseline: DMSO vehicle; quantity = inhibition; value = -17%
Structure (SMILES) = C=C(CN(C(=O)c1c(C(F)F)nn(C)c1F)C1CC1)c1ccc(Cl)cc1Cl; organism = Phytophthora capsici; setting = 1.56 mg/L; quantity = colony diameter; value = 17 mm and 18 mm and 13 mm and 21 mm and 14 mm
Structure (SMILES) = Cn1cc(-c2ccc3nnc(Sc4ccc5ncccc5c4)n3n2)cn1; organism = murine hepatitis virus; assay = viral replication, nanoluciferase reporter; test system = DBT; setting = 1 µM, 10 h; scale = baseline: DMSO vehicle; quantity = inhibition; value = -2%
Structure (SMILES) = Nc1ccn([C@@H]2O[C@H](CO)[C@@H](O)C2(F)F)c(=O)n1; organism = human alphaherpesvirus 1; test system = primary human fibroblasts, K26 GFP; setting = CC50 capped at 10.00 µM; scale = baseline: CC50 over IC50; quantity = selectivity index; value = > 200
Structure (SMILES) = O=C1c2ccc(Nc3ccc(F)cc3F)cc2CCc2ccc(OC[C@H](O)CO)cc21; organism = murine hepatitis virus; assay = viral replication, nanoluciferase reporter; test system = DBT; setting = 1 µM, 10 h; scale = baseline: DMSO vehicle; quantity = inhibition; value = 19%
Structure (SMILES) = N=C(N)NCCC[C@H](NC(=O)[C@H](Cc1c[nH]c2ccccc12)NC(=O)[C@H](CCCNC(=N)N)NC(=O)[C@H](Cc1c[nH]c2ccccc12)NC(=O)[C@H](Cc1c[nH]c2ccccc12)NC(=O)[C@H](Cc1c[nH]c2ccccc12)NC(=O)[C@H](CCCNC(=N)N)NC(=O)[C@H](Cc1c[nH]c2ccccc12)NC(=O)[C@@H](N)CCCNC(=N)N)C(=O)N[C@@H](Cc1ccccc1)C(N)=O; organism = Candida albicans; assay = broth microdilution; test system = CGMCC 2.209, RPMI 1640-MOPS; setting = 48 h, 30 °C, with: FeCl3 4 µM; quantity = MIC; value = 8 µM
Structure (SMILES) = CS(=O)(=O)CCCn1c(Cn2c(=O)n(CC(F)(F)F)c3ccncc32)cc2cc(Cl)ccc21; organism = respiratory syncytial virus; assay = RT-qPCR; test system = hospitalized infants 1-24 months, nasal swab; setting = oral, 8 mg/kg daily, day 5, cohort 6-24 months; scale = baseline: baseline; quantity = LS mean viral load change; value = -2.32 log10 copies/mL
Structure (SMILES) = COC(=O)C1=C(C)NC(C)=C(C(=O)OC(C)(C)CN(C)CCC(c2ccccc2)c2ccccc2)C1c1cccc([N+](=O)[O-])c1 (stereo not drawn); organism = Aspergillus fumigatus; setting = 1.95 µM, 48 h, conidia, with: caspofungin 0.2 µg/mL; scale = baseline: caspofungin alone; quantity = CFU relative; value = 0.524 and 1 and 1.03
Structure (SMILES) = CN(C)C(=O)/C(C#N)=C/c1ccc(-c2nc3cnc4c(ccn4C)c3n2C2CCCCC2)o1; organism = murine hepatitis virus; assay = viral replication, nanoluciferase reporter; test system = DBT; setting = 1 µM; scale = baseline: DMSO vehicle; quantity = inhibition; value = 30%
Structure (SMILES) = CC[C@H](C)[C@H](NC(=O)[C@H](C)NC(=O)[C@H](CCCCN)NC(=O)[C@H](CC(C)C)NC(=O)[C@H](C)NC(=O)[C@@H](NC(=O)[C@H](Cc1c[nH]cn1)NC(=O)[C@H](CC(C)C)NC(=O)[C@@H](NC(=O)[C@@H](NC(=O)[C@H](CCCCN)NC(=O)[C@H](C)NC(=O)[C@H](C)NC(=O)[C@H](CO)NC(=O)[C@H](CCCCN)NC(=O)[C@H](Cc1ccccc1)NC(=O)[C@@H](NC(=O)[C@H](CCCCN)NC(=O)[C@H](CC(C)C)NC(=O)[C@H](Cc1ccccc1)NC(=O)[C@H](CO)NC(=O)[C@H](CCCCN)NC(=O)[C@H](Cc1c[nH]c2ccccc12)NC(=O)[C@H](CCCCN)NC(C)=O)[C@@H](C)O)[C@@H](C)O)C(C)C)[C@@H](C)O)C(=O)N[C@@H](CO)C(=O)N[C@@H](CO)C(N)=O; organism = Klebsiella pneumoniae; setting = 80 strains; quantity = MBC50; value = 8 µg/mL (≈ 2.73 µM)
Structure (SMILES) = C#Cc1ccc(O)c(C=NNC(=O)c2ccc(COC)cc2)c1; organism = Aspergillus fumigatus; test system = 293; setting = unit not given, with: voriconazole; scale = lower = more synergy; quantity = FICI; value = 2
Structure (SMILES) = Fc1ccc(-c2nn3ccccc3c2-c2ccncc2)cc1; organism = Aspergillus fumigatus; setting = 20 µM; scale = baseline: untreated; quantity = metabolic activity; value = ≥ 80%
Structure (SMILES) = Cc1c([N+](=O)[O-])oc2ccc3ccccc3c12; organism = Enterobacter cloacae; assay = REMA; quantity = MIC90; value = 4 µg/mL (≈ 17.6 µM)
Structure (SMILES) = N=C(N)NCCC[C@H](NC(=O)CN)C(=O)N[C@@H](Cc1c[nH]c2ccccc12)C(=O)N[C@@H](CCCNC(=N)N)C(=O)N[C@@H](Cc1c[nH]c2ccccc12)C(=O)N[C@@H](Cc1c[nH]c2ccccc12)C(=O)N[C@@H](Cc1c[nH]c2ccccc12)C(=O)N[C@@H](CCCNC(=N)N)C(=O)N[C@@H](Cc1c[nH]c2ccccc12)C(=O)N[C@@H](CCCNC(=N)N)C(=O)N[C@@H](Cc1ccccc1)C(N)=O; organism = Candida parapsilosis; assay = broth microdilution; test system = CGMCC 2.399, RPMI 1640-MOPS; setting = 48 h, 30 °C; quantity = MIC; value = 8 µM
Structure (SMILES) = C[C@@H](O)[C@H]1C(=O)N2C(C(=O)O)=C(SCCN=CN)C[C@H]12; organism = Klebsiella pneumoniae; test system = KPC-2 parental strain K4(2731); quantity = MIC; value = 64 µg/mL
Structure (SMILES) = Nc1ncnc2c1ncn2[C@@H]1O[C@@H]2COP(=O)(O)O[C@H]3[C@@H](O)[C@H](n4cnc5c(=O)[nH]cnc54)O[C@@H]3COP(=O)(O)O[C@H]2[C@H]1O; organism = Zika virus; assay = downregulated Reactome pathway, RNA sequencing, item: Cell junction organization (R-HSA-446728); test system = HFF-1; scale = baseline: ZIKV-infected untreated; quantity = fold enrichment; value = 7.05
Structure (SMILES) = CC[C@H](C)C[C@H](C)CCCCCCCCC(=O)N[C@H]1C[C@@H](O)[C@@H](NCCN)NC(=O)[C@@H]2[C@@H](O)CCN2C(=O)[C@H]([C@H](O)CCN)NC(=O)[C@H]([C@H](O)[C@@H](O)c2ccc(O)cc2)NC(=O)[C@@H]2C[C@@H](O)CN2C(=O)[C@H]([C@@H](C)O)NC1=O; organism = Candida parapsilosis; assay = broth dilution; test system = ATCC 22099; setting = 48 h, 37 °C; quantity = MFC; value = 4 µg/mL (≈ 3.66 µM)
Structure (SMILES) = Cn1cc(C2=C(c3cn(C4CCN(Cc5ccccn5)CC4)c4ccccc34)C(=O)NC2=O)c2ccccc21; organism = murine hepatitis virus; assay = viral replication, nanoluciferase reporter; test system = DBT; setting = 1 µM, 10 h; scale = baseline: DMSO vehicle; quantity = inhibition; value = 37%
Structure (SMILES) = COc1cc2ccc3oc([N+](=O)[O-])cc3c2cc1OC; organism = Enterobacter cloacae; assay = REMA; quantity = MIC90; value = > 32 µg/mL
Structure (SMILES) = CCCC(CCC)C(=O)Nc1ccccc1O; organism = Artemia franciscana; assay = LC-MS/MS metabolomics, item: 1-aminocyclopropanecarboxylic acid; test system = larvae; setting = concentration not given, 24 h, LC10 concentration; scale = baseline: vehicle; quantity = fold change; value = 1.67
Structure (SMILES) = CNCC(=O)N[C@@H](CO)C(=O)N[C@H]1[C@H](O)[C@@H](O)[C@H](n2ccc(N)nc2=O)O[C@@H]1C(N)=O; organism = Tobacco mosaic virus; assay = inactivation activity; test system = plant in vivo; quantity = EC50; value = 77.4 ± 1.3 µg/mL (≈ 175 µM)

Excerpt of the above:
Structure (SMILES) = CS(=O)(=O)CCCn1c(Cn2c(=O)n(CC(F)(F)F)c3ccncc32)cc2cc(Cl)ccc21; organism = respiratory syncytial virus; assay = RT-qPCR; test system = hospitalized infants 1-24 months, nasal swab; setting = oral, 8 mg/kg daily, day 5, cohort 6-24 months; scale = baseline: baseline; quantity = LS mean viral load change; value = -2.32 log10 copies/mL
Structure (SMILES) = COC(=O)C1=C(C)NC(C)=C(C(=O)OC(C)(C)CN(C)CCC(c2ccccc2)c2ccccc2)C1c1cccc([N+](=O)[O-])c1 (stereo not drawn); organism = Aspergillus fumigatus; setting = 1.95 µM, 48 h, conidia, with: caspofungin 0.2 µg/mL; scale = baseline: caspofungin alone; quantity = CFU relative; value = 0.524 and 1 and 1.03
Structure (SMILES) = CN(C)C(=O)/C(C#N)=C/c1ccc(-c2nc3cnc4c(ccn4C)c3n2C2CCCCC2)o1; organism = murine hepatitis virus; assay = viral replication, nanoluciferase reporter; test system = DBT; setting = 1 µM; scale = baseline: DMSO vehicle; quantity = inhibition; value = 30%
